Results pooled from the literature.
Each line is one published result; not all experiments were run side by side. “And” joins repeats or separate records; there may be more than shown.

Compound	target or system	test	system	conditions	scale	quantity	result
CC(C)[C@H](C(=O)Nc1ccc(C(=O)NO)cc1)c1ccccc1		volumetric MRI	human, right IAC schwannoma	dose not given, day 1512		tumour growth rate	49.7 %/year
COc1ccccc1[C@H](Cn1c(=O)n(C(C)(C)C(=O)O)c(=O)c2c(C)c(-c3ncco3)sc21)OC1CCOCC1		[1-13C]acetate infusion, isotopomer analysis	overweight or obese healthy men, plasma VLDL-TG palmitate	oral, 50 mg single dose, 9 h post-dose, added: oral fructose		fractional hepatic DNL	17 % new palmitate
CSCCNc1nc(SCCC(F)(F)F)nc2c1ncn2[C@@H]1O[C@H](COP(=O)(O)OP(=O)(O)C(Cl)(Cl)P(=O)(O)O)[C@@H](O)[C@H]1O		platelet aggregation, light transmission aggregometry	human patients, platelet-rich plasma	dose not given, 2 h, added: TRAP 15 µM		patients with IPA above 80%	5%
C[C@H](CS)C(=O)N1CCC[C@H]1C(=O)O		inhibitor, LC-MS/MS, refers to: Met- or Leu-enkephalin	mouse striatal brain slices	10 µM, 20 min, added: 50 mM KCl		extracellular enkephalin concentration	637 pM and 674 pM and 635 pM and 871 pM and 608 pM
[Mn+2]		flow cytometry	CD4-negative PBMC, BALB/c mouse	dose not given	baseline: no Mn2+	CD18-high cell fraction	1.33 and 29.5 and 6.96 and 6.5 and 5.29 and 1.41 and 17.1 and 0.82
N#Cc1ccc2c(-c3ccncc3)c(-c3ccc(F)cc3)nn2c1		kinase binding, competitor, MIB/MS competition, refers to: HRR25	Candida albicans cell lysate	10 µM	baseline: DMSO	log2 fold change	-2.68
OCC(O)CO		ELISA	Mus musculus male wild type, serum	drinking water, 5% w/v, 2 days		FGF21 level	504 pg/mL and 702 pg/mL and 753 pg/mL and 849 pg/mL and 320 pg/mL
Cc1cc(-c2nnc(N)nc2-c2ccc(F)cc2)cc(Cl)n1		NanoString, refers to: TH17.Medi.IO signature	human mCRPC, peripheral blood	dose not given, 2 or 4 weeks	baseline: baseline, direction not given	GSVA score change	0.241
CC1(C)CCC2(CC1)N[C@@H](C(=O)N[C@@H]1CC[C@@H](C(N)=O)OC1)[C@H](c1ccnc(Cl)c1F)[C@]21C(=O)Nc2cc(Cl)ccc21			human, solid tumours	90 mg/day, RECIST	baseline: patients	progressive disease	30%
N=C1NC(=O)/C(=C/c2ccc(O)cc2)S1	HBL-1			0.1 µM, 120 h		viability	111%
Cl.O=C(c1cc(Cc2n[nH]c(=O)c3ccccc23)ccc1F)N1CC(CNC2CC2)C1			BALB/c nude mouse, CAPAN-1 xenograft	oral, 100 mg/kg once daily, 28 days		tumour growth inhibition	82.5%
C=C1CC[C@H](OCCCNC(=O)CCOCCOCCOCCOCCOCCOCCOCCOCCOCCOCCOCCOCCOCCOCCOCCOCCOCCOCCOCCOCCOCCOCCOCCOCCOCCOCCOCCOCCOCCOCCOCCOCCOCCOCCOCCOCCNC(=O)CCN2C(=O)CC(SC[C@H](NC(=O)[C@H](CCCNC(=N)N)NC(=O)[C@@H]3CCCN3C(=O)[C@H](CCC(N)=O)NC(=O)[C@H](CC(C)C)NC(=O)[C@H](CCCCN)NC(=O)[C@H](C)NC(=O)[C@@H]3CCCN3C(=O)[C@@H]3CCCN3C(=O)[C@H](CCCCN)NC(=O)[C@H](CCCCN)NC(=O)[C@H](CO)NC(=O)[C@H](CCC(=O)O)NC(=O)[C@H](CCCCN)NC(=O)[C@H](CCCNC(=N)N)NC(=O)[C@H](CCC(N)=O)NC(=O)[C@H](CCC(N)=O)NC(=O)[C@@H](NC(=O)[C@H](CCCNC(=N)N)NC(=O)[C@H](CCC(N)=O)NC(=O)[C@H](Cc3c[nH]cn3)NC(=O)[C@H](CCC(=O)O)NC(=O)[C@@H]3CCCN3C(=O)[C@H](CO)NC(=O)[C@H](CC(C)C)NC(=O)[C@H](Cc3ccccc3)NC(=O)[C@H](CNC(=O)CCCCCCC)NC(=O)[C@H](CO)NC(=O)CN)C(C)C)C(=O)O)C2=O)C/C1=C/C=C1\CCC[C@]2(C)[C@@H]([C@H](C)CCCC(C)(C)O)CC[C@@H]12 (some centres unmarked)		refers to: carcass weight	C57BL/6J mice, LLC tumour-induced cachexia	0.5 mg/kg every other day	baseline: tumour-bearing vehicle	body weight loss	6%
CN[C@@H]1COc2c(S(=O)(=O)NC(=O)Nc3c4c(cc5c3CCC5)CCC4)cnn2C1		refers to: IL-18	human participants, whole blood ex vivo	300 mg twice daily, multiple doses, 48 h, IL-18, circulating, adjusted for, added: LPS/ATP	baseline: baseline	inhibition	102%
O[C@H]1CCCN[C@@H]1CCCn1cnc2c(Cl)c(Cl)ccc21		ELISA, refers to: Pro-C3	healthy human volunteers, serum	intraduodenal, 25 mg twice daily, day 14, multiple ascending dose		maximum reduction	19.9%
NC(=O)c1cnc2[nH]ccc2c1N[C@@H]1[C@@H]2CC3C[C@H]1C[C@@](O)(C3)C2		flow cytometry	Japanese healthy men, blood	oral, 100 mg twice daily, 72 h after day 7 dose	baseline: baseline	CD4+CD28+ naive T-cell change	-4.82%
CC(C)NCC(O)c1ccc(O)c(O)c1 (centres unmarked)			ventricular cardiomyocytes, C57BL/6 mouse	dose not given, 0.088 s		sarcomere length	1.72 µm
OC(CCN1CCCCC1)(c1ccccc1)C1CC2C=CC1C2 (centres unmarked)		resting-state EEG	healthy elderly humans	oral, 2 mg, eyes open, LS mean	baseline: baseline	change, theta power, EEG O1-Pz	9.5%
C[C@H]1O[C@@H](O[C@H]2CC[C@@]3(C)[C@@H](CC[C@]4(C)[C@@H]3C=C[C@]35OC[C@@]6(CCC(C)(C)C[C@H]63)[C@@H](O)C[C@]54C)[C@]2(C)CO)[C@H](O)[C@@H](O[C@@H]2O[C@H](CO)[C@@H](O)[C@H](O)[C@H]2O)[C@H]1O			chronic-plus-binge ethanol mice, plasma	oral, 5 mg/kg/day for 7 d, 168 h		total cholesterol	1.71 mM and 1.97 mM and 1.66 mM and 1.74 mM and 1.86 mM
C=CC(=O)N1CCC(c2ccc(C(N)=O)c(-c3ccc(Oc4ccccc4)cc3)n2)CC1		tumour response, Lugano classification	patients with relapsed/refractory MCL	investigator assessed, 10.5 months follow-up		ORR	80.2%
O=C(NO)c1cccc(C(=O)NCCc2ccccc2)c1	HBL-1			1 µM, 120 h		viability	99.5%
C[C@]12CC[C@@H]3c4ccc(O)cc4C[C@@H](CCCCCCCCC[S+]([O-])CCCC(F)(F)C(F)(F)F)[C@H]3[C@@H]1CC[C@@H]2O (some centres unmarked)			female nude mouse LCC2 xenograft	2.0 mg/kg, day 17, tamoxifen-resistant		tumour volume	177 mm3 and 121 mm3 and 142 mm3 and 140 mm3 and 138 mm3 and 186 mm3
CCc1c(C)nc(-c2ccc(Cl)s2)nc1Nc1ccc(CC(=O)O)cc1			C57BL/6J mice, MCD diet	intraperitoneal, 0.3 mg/kg daily, MCD diet 6 weeks, dosed last two	baseline: vehicle	serum ALT	decreased
O=C(OC(C(F)(F)F)C(F)(F)F)N1CCN(Cc2cccc(Oc3ccccc3)c2)CC1		PET blocking study	rhesus monkey, brain occipital cortex	intravenous, 0.03 mg/kg, compound pretreatment, added: [18F]T-401 tracer		volume of distribution	5.41 mL/cm3
NCC(=O)Nc1cncc(-c2nn3c(=O)cc(N4CCNCC4)nc3s2)c1		ADP-induced platelet aggregation, light transmission aggregometry	human stable CAD patients on aspirin, platelets ex vivo	0.05 mg/kg, 90 min post dose, added: 20 µM ADP	baseline: placebo difference	inhibition of platelet aggregation	24.9%
C[C@@H](NC(=O)N1C(=O)[C@H](Cc2ccnc(N)c2)[C@H]1C(=O)O)C1CCCCC1			human	iv infusion, 2.25 mg/kg/h, 24 h		ACT AUEC	14000 h·s
Cc1nc(-c2ccc(OCC(C)C)c(C#N)c2)sc1C(=O)O			mouse, acute hyperuricaemia model	1 mg/kg		decrease in serum uric acid	93.1%
O=C(O)CNC(=O)Cc1ccccc1			ventricular cardiomyocytes, C57BL/6 mouse	dose not given, 0.304 s		sarcomere length	1.71 µm
CCN1CCN(Cc2ccc(Nc3ncc(F)c(-c4cc(F)c5nc6n(c5c4)[C@H](C)CCC6)n3)nc2)CC1		RECIST v1.1	advanced solid tumour patients	Phase Ia monotherapy		ORR	4.2%
CCCCC1(CCCC)CN(c2ccccc2)c2cc(SC)c(OCC(=O)N[C@@H](C(=O)NCC(=O)O)c3ccccc3)cc2S(=O)(=O)C1		refers to: 7α-hydroxy-4-cholesten-3-one	human, plasma	10 mg once daily, day 11		plasma C4	48.9 ng/mL

A few entries again:
Compound	target or system	test	system	conditions	scale	quantity	result
C=C1CC[C@H](OCCCNC(=O)CCOCCOCCOCCOCCOCCOCCOCCOCCOCCOCCOCCOCCOCCOCCOCCOCCOCCOCCOCCOCCOCCOCCOCCOCCOCCOCCOCCOCCOCCOCCOCCOCCOCCOCCOCCOCCNC(=O)CCN2C(=O)CC(SC[C@H](NC(=O)[C@H](CCCNC(=N)N)NC(=O)[C@@H]3CCCN3C(=O)[C@H](CCC(N)=O)NC(=O)[C@H](CC(C)C)NC(=O)[C@H](CCCCN)NC(=O)[C@H](C)NC(=O)[C@@H]3CCCN3C(=O)[C@@H]3CCCN3C(=O)[C@H](CCCCN)NC(=O)[C@H](CCCCN)NC(=O)[C@H](CO)NC(=O)[C@H](CCC(=O)O)NC(=O)[C@H](CCCCN)NC(=O)[C@H](CCCNC(=N)N)NC(=O)[C@H](CCC(N)=O)NC(=O)[C@H](CCC(N)=O)NC(=O)[C@@H](NC(=O)[C@H](CCCNC(=N)N)NC(=O)[C@H](CCC(N)=O)NC(=O)[C@H](Cc3c[nH]cn3)NC(=O)[C@H](CCC(=O)O)NC(=O)[C@@H]3CCCN3C(=O)[C@H](CO)NC(=O)[C@H](CC(C)C)NC(=O)[C@H](Cc3ccccc3)NC(=O)[C@H](CNC(=O)CCCCCCC)NC(=O)[C@H](CO)NC(=O)CN)C(C)C)C(=O)O)C2=O)C/C1=C/C=C1\CCC[C@]2(C)[C@@H]([C@H](C)CCCC(C)(C)O)CC[C@@H]12 (some centres unmarked)		refers to: carcass weight	C57BL/6J mice, LLC tumour-induced cachexia	0.5 mg/kg every other day	baseline: tumour-bearing vehicle	body weight loss	6%
CN[C@@H]1COc2c(S(=O)(=O)NC(=O)Nc3c4c(cc5c3CCC5)CCC4)cnn2C1		refers to: IL-18	human participants, whole blood ex vivo	300 mg twice daily, multiple doses, 48 h, IL-18, circulating, adjusted for, added: LPS/ATP	baseline: baseline	inhibition	102%
O[C@H]1CCCN[C@@H]1CCCn1cnc2c(Cl)c(Cl)ccc21		ELISA, refers to: Pro-C3	healthy human volunteers, serum	intraduodenal, 25 mg twice daily, day 14, multiple ascending dose		maximum reduction	19.9%
NC(=O)c1cnc2[nH]ccc2c1N[C@@H]1[C@@H]2CC3C[C@H]1C[C@@](O)(C3)C2		flow cytometry	Japanese healthy men, blood	oral, 100 mg twice daily, 72 h after day 7 dose	baseline: baseline	CD4+CD28+ naive T-cell change	-4.82%
CC(C)NCC(O)c1ccc(O)c(O)c1 (centres unmarked)			ventricular cardiomyocytes, C57BL/6 mouse	dose not given, 0.088 s		sarcomere length	1.72 µm
